Experimental data collected from several papers.
Every numbered part comes from another study and shows a few of its results, in no order. Substitutions count along the parent as printed.

Set 1
Target: RING finger protein unkempt homolog, zinc fingers 1-6, SBP tag (UNK, Homo sapiens, UniProt Q9C0B0, residues 30-357)
Sequence of UniProt Q9C0B0 (30-357, looked up): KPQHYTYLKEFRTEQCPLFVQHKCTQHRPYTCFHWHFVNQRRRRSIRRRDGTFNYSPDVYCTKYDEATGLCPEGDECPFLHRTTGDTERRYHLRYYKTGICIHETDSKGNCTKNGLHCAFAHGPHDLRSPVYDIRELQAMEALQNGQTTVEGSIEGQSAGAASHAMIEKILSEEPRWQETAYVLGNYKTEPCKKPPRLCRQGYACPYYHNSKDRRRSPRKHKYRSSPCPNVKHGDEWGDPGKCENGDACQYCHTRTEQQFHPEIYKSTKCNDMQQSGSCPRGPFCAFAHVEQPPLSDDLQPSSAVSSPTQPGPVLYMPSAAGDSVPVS
Method: RNA Bind-n-Seq
Form: RNA
Sample: in vitro
Concentration: 100 nM
Notes: RNA with constant flanks, vertebrate orthologous sites, ends assumed
Relative to: input RNA pool
Direction: higher = stronger binding
Constant ends, left off below: GGGAGUUCUACAGUCCGACGAUC … CAACAGAGGAUUGAGCAUCA
Oligonucleotide | bound/input enrichment [ratio]
AGGGAUGGUCCCCAAUCCCACCUCUGUCUAUUCUGUAAACUACAACCUGUAAAUAACCUUUAGCAUUCCUAUUGUAACAAAAUUAAUUUUUAUGAAAUAAAUUAUAUUUCCUAGUCUAAU | 1.55
CUCUAUGGGCCUCGCAGAGUUGAAAUAAUGGAAGAGGAAAGUGAAUAGUAAUCUUCAUUUCAGUAUUUAUGCUUAGAUGUGAAAAUAAAUGUUAUUUGUUGAUCAUUUCUAUAAUCCAGA | 0.269
UUCAGGCACAACUGACUGGUUCGCAGCAUUCCUUACAUAGUUAUCUAUCAAAUGCAAGUGUAGUUAAUUUUCAGGAAACAACCAGACAGUCAUCUUUAUCCUGCAGCUCAGUUGGAGAUU | 1.04
UUGGGACCAGCUCUCUGAAUAGAAAUAGUAGUAAAAAAACCAAGCAAAAUGAUAUUUGUAUAGAAAAAACAGAAGCUAAAUCAUGUAAAGUAAACGCUGCCAGUGUUCCAGGCCCUAAAG | 1.76
UGAGGGUCUGCUGACCACUCACUGUUAAUGUCUGGUAUCUGUAAACAUUUUCUGUUCUUAAAGUCUUUUACUUGUAUAAUUGAUGUUCUUUAAAAUUGUCAAUGUAUAACAGGGCUUAUG | 0.287
CAAUGCCAUGGUGGAUGGCUCUGAGCUGAAAAAAGUGCGAUCCAAUUCACGUGUUUACCACCGCUACUUUCUUCUUGACGCCGACAUGCAAUCAUUGAGGUGGGAGCCAACGAAGAAGGA | 0.38
CCAAAGUUACAAAGUUGGAAUUUGCUGAUUUUUGUUUCGUUUUCUUUUUGUUGUUGAAGGGAGAACCCCUGGCGUUCUACAUGAAACUAACUAGUAGUUUUUGAGAAUCCUAUAAUAUGU | 0.182
GUUAGGUCAUGACCCUUAUAGGCUAGGUCAUGAUGCCUACAGGUUAGGGCAAGACCCCUAUAGAUUAGGCCAUGAUCCCUACAGACUAACUCCUGAUCCCUAUAGGAUGUCACCUAGACC | 0.495
AUCUACUUACUAGACUGGGAUUUUCAAACAAUAGGAAGCUUUUUUUUUUUUUUUUACAGUUAUCUGGUUUCUAUGUGGAAGACUAAAGUCAUGCUUAGAGCUAAAUGUGGUCUUUGCCAA | 1.7
CUACUAUAAACAACUCAGGGCAGUAUUCUCGAUAUCCUUACAGUAACCUAAAUCAGGGAUUAGUUAACAAUACAGGGAUGAAUCAAAAUUUAGGCCUUACAAAUAAUACUUCAAUGAAUC | 1.79
UGCUCCAGUGUAGCAAUUAGUGAGCUUUCCCCUGCUGCUUUCAAGAAAAGAAAUCCCAAAUAGAUUCCUCACCCAUCUGAUUGCACUAUUCUGGGCUUAGUGUCUGUGAUUUUUUACAUA | 1.38

Set 2
Target: Ras GTPase-activating protein-binding protein 1, full length (G3BP1, Homo sapiens, UniProt Q13283)
Sequence of UniProt Q13283 (whole entry, looked up): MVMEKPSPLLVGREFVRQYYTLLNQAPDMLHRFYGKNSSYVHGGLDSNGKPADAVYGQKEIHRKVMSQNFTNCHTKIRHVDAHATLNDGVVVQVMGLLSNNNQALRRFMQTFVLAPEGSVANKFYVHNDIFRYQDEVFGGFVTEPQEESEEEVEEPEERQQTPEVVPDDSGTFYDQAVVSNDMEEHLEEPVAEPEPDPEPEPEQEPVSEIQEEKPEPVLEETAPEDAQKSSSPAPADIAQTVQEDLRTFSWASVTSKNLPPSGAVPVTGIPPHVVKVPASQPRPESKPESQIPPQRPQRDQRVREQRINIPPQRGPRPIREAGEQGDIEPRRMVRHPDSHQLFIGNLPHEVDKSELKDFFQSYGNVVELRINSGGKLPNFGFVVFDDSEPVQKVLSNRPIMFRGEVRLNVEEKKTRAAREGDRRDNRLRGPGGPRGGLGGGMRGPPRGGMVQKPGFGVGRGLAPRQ
Method: RNA Bind-n-Seq
Form: RNA
Sample: in vitro
Concentration: 200 nM
Notes: whole 134-nt RNA, ends assumed
Together with: 150 mM KCl
Relative to: input library
Direction: higher = stronger binding
Constant ends, left off below: GGGAGUUCUACAGUCCGACGAUC … UGGAAUUCUCGGGUGUCAAGG
Oligonucleotide | log2 enrichment
CACAGACAACACGCACCCACACAGACACAGAGGGAAGGGGUUGGGAUGGGGACAGGGUGCACAGCAGGGCGGGGUAGGACCCCAGUCCCU | 1.93
ACCAUGCAGGUGGGCAUCUUUGGGAAGUGGGGCAAGGGGGGGAUAGGGAGGAAAGUAACACUUUGGGAACAGGUGGUCCCAGGUCGUUUC | 1.24
UCCUCAAGUCCUGUGCUACACAUCGUAUGUACCGAAUCGGGGCGGCGGCGGGAAAGUAUUAUGUUACGCCGUUCGGAUCUGCACUUCCAG | 0.207
GUCCUGUGCUACACAUCGUAUGUACCGAAUCAAAUUUUUAAACCCCCAAACCCCCAAAAAAGUAUUAUGUUACGCCGUUCGGAUCUGCAC | -0.409
CACAGACAACACGCACCCACACAGACACAGAGGGAAGGGGUUGGGAUGGGGACAGGGUGCACAGCAGGGCGGGGUAGAACCCCAGCCCCU | 1.88
GUCCUGUGCUACACAUCGUAUGUACCGAAUCGGGUUUGGGUUUUUGGGUUUUUUUGGGAAAGUAUUAUGUUACGCCGUUCGGAUCUGCAC | -0.39
UGGCCCUGGUGGCAUGCGGGGAGGAAGAGGUGGCCUCAUGGAUAGUGGUGGUCCCGGUGGAAUGUUCAGAGGUGGCCGUGGUGGAGACAG | 0.414
GCAGGAAGUAAAAACAAAUGGAAAUGCUUCGGAUAGUGGCAGGGGUGGGGGUUGCUAAGGAAAGGGUGGGAUGGGAGUGGGUACAGAGUU | 1.26
CUGUGCUACACAUCGUAUGUACCGAAUCGGGAAAAAAGGGGAAAAAAGGGGAAAAAAGGGGAAAGUAUUAUGUUACGCCGUUCGGAUCUG | -0.486
AAGUCCUGUGCUACACAUCGUAUGUACCGAAUCGGGAAAGGGAAAAAAAGGGUGGGAAAGUAUUAUGUUACGCCGUUCGGAUCUGCACUU | 0.23

Set 3
Target: Sal-like protein 4, full length isoform B (SALL4, Homo sapiens, UniProt Q9UJQ4-2, residues 1-616)
Method: universal PBM
Form: double-stranded DNA, one strand shown
Sample: in vitro
Concentration: not given
Notes: 8-mer, flanks averaged, mean of replicates
Direction: higher = stronger binding
Oligonucleotide | E-score
CGTAGTAG | -0.0478
TCGAGGAA | -0.0548
AGCCCACC | -0.298
GTTCTCCA | -0.0838
GCTTTACA | 0.0801
AACTCGAC | -0.138
GCTTTTTA | 0.194
ATTAAGTA | 0.333
TCTGTCAA | 0.101
ACAGCGAG | -0.0809
TAGACAAA | 0.156
GCTCAATA | 0.0391
GCAAATAA | 0.213
ATACGACG | 0.157
CCGTATAG | 0.0595
GATATTTA | 0.38
GTCGAAAC | -0.088
ACATCTTA | 0.0988

Set 4
Target: CCND1, cyclin fold, Cln2 fusion (human)
Method: yeast growth competition, sequencing
Sample: yeast
Notes: strong parent motif
Relative to: not given
Direction: higher = stronger binding
Starting sequence: CDKN1A docking peptide (human); SKACRRLFGPVDS; partner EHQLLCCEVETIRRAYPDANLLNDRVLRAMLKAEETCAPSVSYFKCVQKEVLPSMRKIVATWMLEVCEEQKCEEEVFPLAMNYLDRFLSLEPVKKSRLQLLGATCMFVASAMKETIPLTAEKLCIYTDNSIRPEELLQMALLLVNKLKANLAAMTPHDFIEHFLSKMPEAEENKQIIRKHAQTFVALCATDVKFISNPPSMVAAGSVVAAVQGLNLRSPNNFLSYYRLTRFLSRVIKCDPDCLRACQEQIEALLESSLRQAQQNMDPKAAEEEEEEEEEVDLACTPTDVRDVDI
Substitution | normalised enrichment score
SFACRRLFGPVDS [K2F] | 1.35
SKACDRLFGPVDS [R5D] | -0.0992
SQACRRLFGPVDS [K2Q] | 2.01
SKACRRLLGPVDS [F8L] | -0.252
SKACRRHFGPVDS [L7H] | 0.0947
SKACKRLFGPVDS [R5K] | 0.856
SKACARLFGPVDS [R5A] | 0.205
SKACRRLFGPVAS [D12A] | 1.59
SKACRRLMGPVDS [F8M] | 0.0563
SKACTRLFGPVDS [R5T] | 0.48
SKACRRLFGPVWS [D12W] | 1.12
SKACRRWFGPVDS [L7W] | 0.515
SKACRTLFGPVDS [R6T] | 1.36
SKACRRLFGPYDS [V11Y] | 3.16
SKACRRGFGPVDS [L7G] | -0.149
SKWCRRLFGPVDS [A3W] | 0.742
SKACRRNFGPVDS [L7N] | 0.0374
SKACRILFGPVDS [R6I] | 3.19
SKAYRRLFGPVDS [C4Y] | -0.126
